Published values pooled from the literature.
A part holds a random share of what one study measured.

Study 1
Target: Ras GTPase-activating protein-binding protein 1, RRM domain (G3BP1, Homo sapiens, UniProt Q13283)
Sequence of UniProt Q13283 (whole entry, looked up): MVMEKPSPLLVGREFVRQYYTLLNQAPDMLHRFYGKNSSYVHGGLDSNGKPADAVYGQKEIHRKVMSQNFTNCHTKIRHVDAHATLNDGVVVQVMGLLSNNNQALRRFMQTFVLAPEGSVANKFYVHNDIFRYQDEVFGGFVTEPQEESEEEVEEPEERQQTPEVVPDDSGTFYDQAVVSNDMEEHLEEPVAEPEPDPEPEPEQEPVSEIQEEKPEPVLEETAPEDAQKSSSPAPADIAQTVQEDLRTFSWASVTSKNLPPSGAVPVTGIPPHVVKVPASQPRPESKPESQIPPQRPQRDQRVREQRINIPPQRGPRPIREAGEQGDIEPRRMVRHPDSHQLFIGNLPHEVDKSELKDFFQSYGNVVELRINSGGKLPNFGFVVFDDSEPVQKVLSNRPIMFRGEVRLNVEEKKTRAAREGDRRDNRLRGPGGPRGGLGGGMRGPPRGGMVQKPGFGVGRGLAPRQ
Method: RNA Bind-n-Seq
Form: RNA
Sample: in vitro
Tested at: 1 µM
Setting: whole 134-nt RNA, ends assumed
With: 150 mM KCl
Relative to: input library
Reading: higher = stronger binding
The log2 enrichment of `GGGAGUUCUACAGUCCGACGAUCGCAGGAAGUAAAAACAAAUGGAAAUGCUUCGGAUAGUGGCAGGGGUGGGGGUUGCUAAGGAAAGGGUGUGAUGGGAGUGGGUAAAGAGUUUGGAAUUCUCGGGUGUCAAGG` is reported as 1.48.
For `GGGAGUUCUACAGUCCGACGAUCCAAGUCCUGUGCUACACAUCGUAUGUACCGAAUCGGGGAAAGGAAAGGAAAGGGGAAAGUAUUAUGUUACGCCGUUCGGAUCUGCACUUCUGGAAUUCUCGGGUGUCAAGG`, the log2 enrichment was -0.264.
With `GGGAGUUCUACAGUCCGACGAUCCACAGACAACACGCACCCACACAGACACAGAGGGAAGGGGUUGGGAUGGGGACAGGGUGCACAGCAAAACGGGGUAGGACCCCAGCCCCUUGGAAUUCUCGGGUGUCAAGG` the log2 enrichment was -0.13.
The log2 enrichment of `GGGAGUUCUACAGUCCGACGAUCUAACUUUAGAGGAGGAUCUGAUGGAUAUGGCAGUCGACGUGGAUUUGGGGAUGGCUAUAAUGGGUAUGGAGGAGGACCUGGAGGUGGCAAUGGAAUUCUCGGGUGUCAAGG` is reported as -0.833.
The log2 enrichment of `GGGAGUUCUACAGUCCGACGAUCUGGCCCUGGUGGCAUGCGGGGAGGAAGAGGUGGCCUCAUGGAUCGUGGUGGUCCCGGUGGAAUGUUCAGAGAUGGCCGUGGUGGAGACAGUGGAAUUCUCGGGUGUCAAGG` is reported as 1.82.
The log2 enrichment of `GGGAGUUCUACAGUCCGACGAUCUCCUGUGCUACACAUCGUAUGUACCGAAUCGGGUUUUUUUGGGAAAAAGGGAAAAAGGGAAAGUAUUAUGUUACGCCGUUCGGAUCUGCAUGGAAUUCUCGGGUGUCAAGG` is reported as -0.13.
For `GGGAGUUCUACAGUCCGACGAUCUCCUCAAGUCCUGUGCUACACAUCGUAUGUACCGAAUCGGAGGGGAGGAGGAAAGUAUUAUGUUACGCCGUUCGGAUCUGCACUUCCAGCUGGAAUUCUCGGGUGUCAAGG`, the log2 enrichment was -0.181.
With `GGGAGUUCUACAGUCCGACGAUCUCCUGUGCUACACAUCGUAUGUACCGAAUCGGCCCCCCGGGGCCCCCCGGGGCCCCCCGGAAAGUAUUAUGUUACGCCGUUCGGAUCUGCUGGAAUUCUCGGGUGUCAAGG` the log2 enrichment was -0.455.
`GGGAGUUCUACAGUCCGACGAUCAGUCCUGUGCUACACAUCGUAUGUACCGAAUCGGGUUUUUUUGGGUUUUUGGGUGGGAAAGUAUUAUGUUACGCCGUUCGGAUCUGCACUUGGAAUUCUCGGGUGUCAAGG` gave a log2 enrichment of 0.261.
`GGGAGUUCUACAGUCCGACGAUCCCUGUGCUACACAUCGUAUGUACCGAAUCGGGUUUUUUGGGGUUUUUUGGUUUUUUGGGGAAAGUAUUAUGUUACGCCGUUCGGAUCUGCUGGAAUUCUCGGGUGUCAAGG` has a log2 enrichment of -0.222.

Study 2
Target: Sal-like protein 4, full length isoform B (SALL4, Homo sapiens, UniProt Q9UJQ4-2, residues 1-616)
Method: universal PBM
Form: double-stranded DNA, one strand shown
Sample: in vitro
Tested at: not given
Setting: 8-mer, flanks averaged, mean of replicates
Reading: higher = stronger binding
With `GAATACGA` the E-score was 0.213.
`CCAAGCAC` gave an E-score of -0.0319.
`ACACCGTG` gave an E-score of -0.166.
`ACTGAGTA` gave an E-score of 0.047.
`CCAGCGCA` has an E-score of -0.289.
For `CCAGTTCG`, the E-score was -0.198.
`AAACCCTA` gave an E-score of 0.0331.
`TAATGTGA` has an E-score of 0.28.
`AACGTCAG` gave an E-score of -0.0299.
With `CGGGGTAA` the E-score was -0.0123.
`GGCCAACA` gave an E-score of -0.168.
With `AACCCCAC` the E-score was -0.165.
With `ATAGAGCA` the E-score was 0.143.
The E-score of `ATGCATTC` is reported as 0.2.
The E-score of `CATTTTCA` is reported as 0.261.
For `CGATATGC`, the E-score was 0.066.
`AGCAGAAG` gave an E-score of -0.193.
`GGAACTAA` has an E-score of -0.0692.
The E-score of `AGTCTGAC` is reported as -0.131.
For `GATGTGAA`, the E-score was 0.153.
`TCTGGGCA` has an E-score of -0.25.
`AATTTGTC` has an E-score of 0.182.
The E-score of `CAGGTTAA` is reported as 0.00298.
With `CAGCCAAG` the E-score was -0.135.
For `AACAAGAA`, the E-score was 0.207.

Study 3
Target: RNA binding protein fox-1 homolog 2, RRM domain, GST-SBP tag (RBFOX2, Homo sapiens, UniProt O43251-10, residues 100-194)
Method: RNA Bind-n-Seq
Form: RNA
Sample: in vitro
Tested at: 365 nM
Setting: natural RNA segment, single round, ends assumed
Relative to: no-protein control
Reading: higher = stronger binding
Target sequence (chain): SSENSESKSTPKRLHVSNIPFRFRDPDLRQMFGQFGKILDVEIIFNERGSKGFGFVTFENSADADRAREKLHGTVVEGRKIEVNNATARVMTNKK
Under “RBNS enrichment (R)”, `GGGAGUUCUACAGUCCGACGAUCGAGUGGGGGGCAGCAAGAUGCCAUUUCUGCAUCUCCCAGAAGGGAUGAGUCUUUGUCCCGAUGCAAGCCCCCUCUUCGCUGGGCUCCCAGCAGUGCUUCCCUCCUCCACCUGGAAUUCUCGGGUGCCAA` is recorded as 0.193.
Under “RBNS enrichment (R)”, `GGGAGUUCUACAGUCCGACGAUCAGCCAAGAGAAUCAGAGAAAGAUGCUGCAUUUUAUAUCAAAGCCCAAACUCCUUUCUUAUCUUGACCAUACUAAUAAAUAUAAUUUAUAAGCAUUGCCAUUGAAGGCUUAUGGAAUUCUCGGGUGCCAA` is recorded as 0.499.
`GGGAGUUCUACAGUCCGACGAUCUGCUUACUGUAACUGCGGCCGGUUUAGUGACCCCAUGACUUACAGCCGGUUCUUACCUCUUAGGUGAAGGAGAUGACAUGUUUUUAGAAUUGCUGUGCAAGGCUCACCCUUGGAAUUCUCGGGUGCCAA` — result for “RBNS enrichment (R)”: 0.68.
`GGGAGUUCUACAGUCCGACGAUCGCAGAGUCCAACCGAAAACCCCCUAGGUGAGAUAGGCAGUAACUGGGCCUGCUGUCUGCGCCUUUCGUAGUGACAGAUGUGGCUGUAGUGUUUAGGUGUUUGGUCUUGCUUGGAAUUCUCGGGUGCCAA`: “RBNS enrichment (R)” 0.369.
`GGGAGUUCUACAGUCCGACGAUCCUUCAAGGAUGAUGUUAGAAAAAUGUGAUUUAACUAGAACUUGUUUGAUGUUAGCAAAUCAUGGAAUGUUCUAAGUCUCUGAGGGUUUACUGUGAAGUGUUGAGGACAGUUGGAAUUCUCGGGUGCCAA`: “RBNS enrichment (R)” 0.995.
For `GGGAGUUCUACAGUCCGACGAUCUACAUCUGCACAUACAAGCGCUUGUGCUAACAGAGCCAGACUUGGACUCCCCUACCUAUUAGUCUGGCCCCCAUGUGCUUUGCUCCCCAUGCUCAGUGGUCACUAUCCCCUGGAAUUCUCGGGUGCCAA`, “RBNS enrichment (R)” read 0.76.
Under “RBNS enrichment (R)”, `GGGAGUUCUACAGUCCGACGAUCACGAUGGGGCCUCUUUCUAAAGGCAGUUGCUGCAAAUUCCAGUUCUUCCAAAAGUCACUUGAUUUAAGGGUUAUCCACAAGUUGUGCUUAUUUUGAUAUAGCAUUUGUUUUGGAAUUCUCGGGUGCCAA` is recorded as 0.506.
`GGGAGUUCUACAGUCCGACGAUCUCAGAAAACUGUGAAGCAGGGGUCUUGUUAGUUACAAAGCCAGUCCUAGUUGCAUGUCCAAGGGGGUAGAUUUUCAUCACCCUACUAAAUGUGGUAUGUCACUGCUGAAGUGGAAUUCUCGGGUGCCAA`: “RBNS enrichment (R)” 0.815.
Under “RBNS enrichment (R)”, `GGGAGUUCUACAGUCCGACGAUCAUUUCCUACUCUUUUUCUCUAUAUAACUCAUUCUAUUAAAUACAUUGCACCAAAGAGAUAUGGAGACAUAAACCUGUAAUGAAUGAGGCUGGGCUUUUCUGUAAUAAGCUUGGAAUUCUCGGGUGCCAA` is recorded as 0.652.

Study 4
Target: Interferon regulatory factor 7, full length, phosphomimetic (IRF7, Homo sapiens, UniProt Q92985, residues 1-503, S101K/S471D/S472D/S475D/S476D/S477D/S483D/S484D/S487D)
Sequence of UniProt Q92985 (whole entry, unmodified, looked up): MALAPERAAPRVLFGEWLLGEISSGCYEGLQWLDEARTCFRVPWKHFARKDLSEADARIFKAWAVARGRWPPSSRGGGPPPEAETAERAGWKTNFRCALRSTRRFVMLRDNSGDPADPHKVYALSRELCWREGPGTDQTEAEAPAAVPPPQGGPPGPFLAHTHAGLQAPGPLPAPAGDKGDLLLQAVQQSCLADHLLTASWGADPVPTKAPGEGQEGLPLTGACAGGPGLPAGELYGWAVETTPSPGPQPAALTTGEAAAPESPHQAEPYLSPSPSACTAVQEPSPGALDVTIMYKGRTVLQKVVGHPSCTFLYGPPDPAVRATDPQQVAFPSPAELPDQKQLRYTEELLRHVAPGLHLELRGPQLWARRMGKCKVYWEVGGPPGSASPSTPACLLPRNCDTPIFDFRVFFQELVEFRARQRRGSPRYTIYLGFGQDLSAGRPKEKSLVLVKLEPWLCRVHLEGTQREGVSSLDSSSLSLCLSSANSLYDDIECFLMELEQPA
Method: protein-binding microarray
Form: double-stranded DNA, one strand shown
Sample: in vitro
Tested at: 250 nM
Setting: 60-bp whole probe
With: salmon DNA 0.4 mg/ml
Relative to: random background probes
Reading: higher = stronger binding
Constant ends, left off below: GCCTAGCAC … GTCTTGATTCGCTTGACGCTGCTG
The log fluorescence of `TCTCGCTTCATCTCCCAGACTGTGCTA` is reported as 3.59 z-score.
For `GACGGTCTCCCTCTCCTGACGTGCTAG`, the log fluorescence was -0.148 z-score.
The log fluorescence of `GACGGTTGCCTTCTCCTGACGTGCTAG` is reported as -0.242 z-score.
For `TCAACTTTAGGTTCCCAACTGTGCTAG`, the log fluorescence was 0.419 z-score.
`TCATCTTTCACTGCTCCCACTGTGCTA` gave a log fluorescence of 0.815 z-score.
The log fluorescence of `TCATCTGTGCCTTTTTTACTGTGCTAG` is reported as 0.233 z-score.
For `TAATGGATATATATCATTTAGTGCTAG`, the log fluorescence was 0.265 z-score.
`GACGGACTGAGTATCGAGACGTGCTAG` has a log fluorescence of -0.21 z-score.
`GGAGGCCTCTTCATTCATTAAGTGCTA` gave a log fluorescence of -0.777 z-score.
The log fluorescence of `TGAGGACTGGGGTTTCGGTTAGTGCTA` is reported as 5.02 z-score.
With `GACGGTCTCGGTTTCGGGAGGTGCTAG` the log fluorescence was 7.26 z-score.
For `TTAGAGCTGAGTATCGATTAGTGCTAG`, the log fluorescence was -0.102 z-score.
With `TCAGCTTTCCTTTATGTACTGTGCTAG` the log fluorescence was 0.737 z-score.
The log fluorescence of `TTAGATAACGGGTTTCGATTAGTGCTA` is reported as 7.29 z-score.
`TAGATCGTCCCTTTGAGAGGGTGCTAG` has a log fluorescence of 0.432 z-score.
`CCCTATTTAAGGCATCTGCAGGTGCTA` gave a log fluorescence of 0.943 z-score.
With `TTGGGTTCCCTTTTCCTTTAGTGCTAG` the log fluorescence was 3.17 z-score.
For `TCCCACAGTCGAAAGTCTGCGTGCTAG`, the log fluorescence was -0.269 z-score.
The log fluorescence of `TCAGCTTCCTCTTTCACACTGTGCTAG` is reported as 0.815 z-score.
For `TTAGATTTCGGGTCTGGATTAGTGCTA`, the log fluorescence was 0.728 z-score.

For quick reference, copied from above (study 2):
`TCTGGGCA` has an E-score of -0.25.
`AACGTCAG` gave an E-score of -0.0299.
With `CAGCCAAG` the E-score was -0.135.
With `GAATACGA` the E-score was 0.213.
With `CGGGGTAA` the E-score was -0.0123.
`CCAAGCAC` gave an E-score of -0.0319.
`TAATGTGA` has an E-score of 0.28.
`GGCCAACA` gave an E-score of -0.168.
The E-score of `CATTTTCA` is reported as 0.261.
The E-score of `ATGCATTC` is reported as 0.2.
